# Published values collected from several papers.
# Protocols differ between the studies behind these lines. ± marks the error that the study gave.
Compound,target or system,test,test system,conditions,scale,endpoint,value
CC(C)(C(=O)N1CCOc2c(C#N)cncc2C1)C(F)F,,,"human, both sexes","oral, 40 mg single dose",,subjects with cardiac disorder TEAE,16.7%
COc1c(O)cc2c(c1O)C(=O)c1c(cc(C)c(O)c1OC)C2=O,HepaRG co-cultured with HK-2,MTT,,"133.33 µM, 24 h",baseline: untreated control,cell viability,82.8 ± 16.1%
CCc1cc2ncc(CN3CCN(c4ccc(C(=O)NC)nc4)CC3)cc2[nH]c1=O,,,"female rat, blood","oral, 5 mg/kg/day, 4 weeks",baseline: vehicle control,Neutrophils count ratio,0.57
CCN1/C(=C/C(C)=O)Sc2ccc(F)cc21,,,cynomolgus monkey,"oral, 100 mg/kg, 24 h post-dose",,mean blood pressure,86 ± 7 mmHg
O=C(O)c1cc(O)ccc1O,,,human plasma,"median, both sexes",,plasma concentration,4.29 µM
Cc1cc(-c2nccc3c2ccn3CC(=O)Nc2ccc(-c3cnccn3)cn2)ccn1,,,human,"SAD part, single 7 mg dose",,subjects with gastrointestinal disorders TEAEs,0%
OC[C@H]1O[C@@H](c2ccc(Cl)c(Cc3ccc(O[C@H]4CCOC4)cc3)c2)[C@H](O)[C@@H](O)[C@@H]1O,,,"Japanese type 1 diabetes patients, blood","10 mg, day 28",baseline: baseline,change in Triglycerides,-11.3 mg/dL
Cc1ccc([C@@H]2O[C@H](CO)[C@@H](O)[C@H](O)[C@H]2O)cc1Cc1ccc(-c2ccc(F)cc2)s1,,,Japanese type 2 diabetes patients,"100 mg, day 6, 24 h urine collection",baseline: baseline,urinary potassium excretion change,-3.35 mEq
Oc1ccc(/C=C/c2cc(O)cc(O)c2)cc1,,,"male Wistar rats, plasma","oral, 10 mg/kg",,tmax,30 ± 7.2 min
COC(=O)c1cn(C)c2ccc(-c3cccnc3)cc12,COS-7,WST-8,,"10 µM, 24 h, 0.1% DMSO, unit not given",baseline: vehicle control,metabolic activity,0.98 ± 0.06
O=C(CCCCCCC(=O)Nc1ccc(CC[18F])cc1)NO,,,"athymic nu/nu male mice, LNCaP xenograft, small intestine","intravenous, 2 h",,tissue uptake,12.8 ± 3.9 %ID/g
CCc1nc(C(N)=O)c(Nc2ccc(N3CCC(N4CCN(C)CC4)CC3)c(OC)c2)nc1NC1CCOCC1,,,"Japanese patients, plasma","oral, 120 mg, cycle 1 day 28, multiple doses, median",,AUCtau,13.5 µg·h/mL
O=C(O)CCc1cccc(O)c1O,,,human plasma,median,,plasma concentration,0.945 µM
C[C@H]1CN(C(=O)CC#N)[C@]12CCN(c1ncnc3[nH]ccc13)C2,,,"healthy Japanese males, plasma","oral, 5 mg single dose",,AUC(0-last),0.167 µg·h/mL
NC1(C(=O)N[C@@H](CCO)c2ccc(Cl)cc2)CCN(c2nc[nH]c3nccc2-3)CC1,,,metastatic CRPC patients,"dose not given, any grade, treatment-related, all doses, with: enzalutamide 160 mg daily",,incidence of Amnesia,6.7%
Cc1noc(C)c1-c1cc(C(O)(c2ccccn2)c2ccccn2)c2nc(C3CC3)[nH]c2c1,,,"human male, fasted, plasma","oral, 3 mg once daily, cycle 1 day 8",,AUCtau,3.76 µg·h/mL
O=C1c2cccc(O)c2C(=O)c2c(O)cc(CO)cc21,HepaRG co-cultured with HK-2,MTT,,"266.67 µM, 24 h",baseline: untreated control,cell viability,112 ± 9.53%
Cc1cc(NC2CCN(C(=O)OC3CCN(C(=O)/C=C/CN(C)C)C3)CC2)n2ncc(C(C)C)c2n1 (centres unmarked),,"Phase I dose escalation CTCAE v4.0, measured: platelet count decreased",patients with advanced solid tumours,"dose not given, Total dosing any grade",,patients with adverse event,17%
O=S(=O)(O)Oc1c(O)cccc1O,,,human plasma,median,,plasma concentration,0.317 µM
CCC[C@@H]1C[C@@H](C(=O)N[C@@H]([C@H]2O[C@H](SC)[C@H](O)[C@@H](O)[C@H]2O)[C@@H](C)O)N(C)C1,,starch gel membrane permeability,Gram-negative envelope surrogate,"200 µM, 90 min, pH 7.4",,amount permeated,3.99 nmol
COc1cc([C@H]2Oc3ccc([C@H]4Oc5cc(O)cc(O)c5C(=O)[C@@H]4O)cc3O[C@@H]2CO)ccc1O,,,"OATP1B1/1B3 humanized mice, plasma","oral gavage, 500 mg/kg silymarin, geometric mean",,AUC(0-4h),240 nM·h
COc1cccc(-c2ccc(NC(=O)C3=C(C(=O)O)CCC3)c(F)c2)c1,COS-7,WST-8,,"10 µM, 24 h, 0.1% DMSO, unit not given",baseline: vehicle control,metabolic activity,0.68 ± 0.19
CC(C)NCCCC[C@@H]1NC(=O)[C@H](Cc2ccc(O)cc2)NC(=O)[C@H](Cc2ccccc2)NC(=O)CC[C@H](C(=O)N[C@@H](CCCCNC(C)C)C(=O)N[C@@H](CCCCNC(=O)[C@H](CCC(=O)O)NC(=O)[C@H](CCC(=O)O)NC(=O)[C@H](CCC(=O)O)NC(=O)CN2CCN(CC(=O)O)CCN(CC(=O)O)CCN(CC(=O)O)CC2)C(N)=O)NC(=O)CNC(=O)[C@H](Cc2ccc3ccccc3c2)NC(=O)[C@@H](CCCNC(=N)N)NC1=O [gallium-68 labelled],,,"mouse with Daudi xenograft, muscle","intravenous, 2 h",,tissue uptake,0.04 %ID/g

# Repeated from above:
Compound,target or system,test,test system,conditions,scale,endpoint,value
NC1(C(=O)N[C@@H](CCO)c2ccc(Cl)cc2)CCN(c2nc[nH]c3nccc2-3)CC1,,,metastatic CRPC patients,"dose not given, any grade, treatment-related, all doses, with: enzalutamide 160 mg daily",,incidence of Amnesia,6.7%
Cc1noc(C)c1-c1cc(C(O)(c2ccccn2)c2ccccn2)c2nc(C3CC3)[nH]c2c1,,,"human male, fasted, plasma","oral, 3 mg once daily, cycle 1 day 8",,AUCtau,3.76 µg·h/mL
O=C1c2cccc(O)c2C(=O)c2c(O)cc(CO)cc21,HepaRG co-cultured with HK-2,MTT,,"266.67 µM, 24 h",baseline: untreated control,cell viability,112 ± 9.53%
